# Results of several laboratories.
# Every numbered part comes from another study and shows a few of its results, in no order. Substitutions count along the parent as printed.

# Sample 1 — method: universal PBM; molecule type: double-stranded DNA, one strand shown; sample: in vitro; concentration: 600 nM; direction: higher = stronger binding
# Target: Sal-like protein 4, full length isoform A (SALL4, Homo sapiens, UniProt Q9UJQ4, residues 1-1053)
# UniProt Q9UJQ4, sequence (whole entry, looked up): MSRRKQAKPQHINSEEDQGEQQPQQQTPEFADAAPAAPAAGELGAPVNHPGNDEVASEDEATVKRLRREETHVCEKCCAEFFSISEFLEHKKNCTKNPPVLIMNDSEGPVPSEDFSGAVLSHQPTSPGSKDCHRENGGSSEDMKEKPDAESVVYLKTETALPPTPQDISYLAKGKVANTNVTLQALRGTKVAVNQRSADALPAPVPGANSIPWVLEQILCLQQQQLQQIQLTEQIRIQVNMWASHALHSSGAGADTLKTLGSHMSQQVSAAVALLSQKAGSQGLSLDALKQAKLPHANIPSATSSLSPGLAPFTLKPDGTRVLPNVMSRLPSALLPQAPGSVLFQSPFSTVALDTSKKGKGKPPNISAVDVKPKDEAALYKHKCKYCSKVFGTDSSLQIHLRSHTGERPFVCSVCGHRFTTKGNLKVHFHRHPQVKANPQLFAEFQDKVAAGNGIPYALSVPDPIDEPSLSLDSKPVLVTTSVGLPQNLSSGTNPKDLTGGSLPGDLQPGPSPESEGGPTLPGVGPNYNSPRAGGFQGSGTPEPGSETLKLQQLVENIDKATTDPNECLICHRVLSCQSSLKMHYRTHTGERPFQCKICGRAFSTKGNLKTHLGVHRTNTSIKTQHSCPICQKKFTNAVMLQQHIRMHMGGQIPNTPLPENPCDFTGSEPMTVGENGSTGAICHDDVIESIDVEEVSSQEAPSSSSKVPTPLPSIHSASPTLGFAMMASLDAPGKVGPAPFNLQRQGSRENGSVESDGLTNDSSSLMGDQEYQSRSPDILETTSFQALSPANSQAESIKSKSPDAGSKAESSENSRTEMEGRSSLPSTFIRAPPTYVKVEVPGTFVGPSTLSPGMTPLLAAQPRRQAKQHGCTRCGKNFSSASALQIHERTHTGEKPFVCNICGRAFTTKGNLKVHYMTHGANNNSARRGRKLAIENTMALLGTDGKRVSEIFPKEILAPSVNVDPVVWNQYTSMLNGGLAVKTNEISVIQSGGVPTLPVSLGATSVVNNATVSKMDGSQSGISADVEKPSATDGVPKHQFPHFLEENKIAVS
# Setting: 8-mer, flanks averaged, mean of replicates
Sequence,E-score
GGTGTACA,0.0567
GAGCCACC,-0.273
ACTCGTTG,0.102
TCTCAACA,0.158
GACAGTTA,0.0863
CAAATCCC,-0.162
TAAGGAGA,0.0268
AGTGGTGC,-0.149

# Sample 2 — target: CEP164, C-terminal peptide (human); method: DHFR complementation, deep sequencing; sample: yeast; relative to: wild type; direction: higher = weaker binding
# Setting: single substitutions, model-inferred values
# Starting sequence: PDZK1, PDZ domain 2 (human); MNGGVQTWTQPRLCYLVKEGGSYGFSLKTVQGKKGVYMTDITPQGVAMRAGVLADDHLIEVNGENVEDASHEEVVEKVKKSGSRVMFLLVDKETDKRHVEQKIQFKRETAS; partner HNRVKVYRF
Change,binding free energy change
V90F,0.0476 kcal/mol
G45C,1.35 kcal/mol
L88V,0.163 kcal/mol
S111M,0.413 kcal/mol
E73V,0.068 kcal/mol
Q104W,-0.147 kcal/mol
V78R,1.95 kcal/mol
G4H,-0.00356 kcal/mol

# Sample 3 — Change: S26F; method: DHFR PCA, deep sequencing; sample: yeast; relative to: wild-type fitted maximum; direction: higher = stronger binding
# Target: ABI1, truncated, D143A, DHFR fusion (Arabidopsis thaliana)
# Setting: methotrexate growth selection, single substitutions
# Starting sequence: PYL1, truncated, DHFR fusion (Arabidopsis thaliana); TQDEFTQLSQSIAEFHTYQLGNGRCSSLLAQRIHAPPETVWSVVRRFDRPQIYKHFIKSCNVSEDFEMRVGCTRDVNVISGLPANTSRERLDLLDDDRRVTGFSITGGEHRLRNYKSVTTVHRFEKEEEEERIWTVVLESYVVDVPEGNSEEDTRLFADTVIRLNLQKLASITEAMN
with,relative binding score [%]
(+)-ABA 58 µM,74.9
(+)-ABA 0.39 µM,1.59
(+)-ABA 4.8 µM,40.8
(+)-ABA 1.4 µM,-19.1
(+)-ABA 2500 µM,97.4
(+)-ABA 710 µM,94.8

# Mixed results
# Starting sequence: PafA, mature enzyme, eGFP fusion (Elizabethkingia meningoseptica, UniProt Q9KJX5); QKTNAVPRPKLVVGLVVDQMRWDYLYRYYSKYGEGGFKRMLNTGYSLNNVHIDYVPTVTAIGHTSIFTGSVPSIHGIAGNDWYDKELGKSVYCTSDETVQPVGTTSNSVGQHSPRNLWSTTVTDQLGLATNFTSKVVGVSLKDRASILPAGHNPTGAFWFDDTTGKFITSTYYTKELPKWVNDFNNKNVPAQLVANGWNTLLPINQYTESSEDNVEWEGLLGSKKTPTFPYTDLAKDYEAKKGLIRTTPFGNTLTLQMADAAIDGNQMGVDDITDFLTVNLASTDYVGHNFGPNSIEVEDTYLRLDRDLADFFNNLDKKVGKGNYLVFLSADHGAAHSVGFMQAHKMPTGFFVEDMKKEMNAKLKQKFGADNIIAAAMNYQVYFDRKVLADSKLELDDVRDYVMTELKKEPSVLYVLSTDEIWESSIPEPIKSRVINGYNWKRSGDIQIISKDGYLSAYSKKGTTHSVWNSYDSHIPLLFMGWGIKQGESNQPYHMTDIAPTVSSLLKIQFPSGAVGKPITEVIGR
Change,target,test,test system,conditions,how to read,quantity,value
V109A,"tungstate, free oxyanion",microfluidic competitive inhibition,"in vitro, cell-free expressed","not given, derived from inhibition constants, unchanged parent 2230 nM",lower = stronger binding,oxyanion analog dissociation constant,2.53 µM

# Repeated from above (sample 1):
Sequence,E-score
CAAATCCC,-0.162
ACTCGTTG,0.102
AGTGGTGC,-0.149
